# Measured values collected from several papers.
# Every numbered part comes from another study and shows a few of its results, in no order.

# Sample 1
# Target: Interferon regulatory factor 5, full length, phosphomimetic (IRF5, Homo sapiens, UniProt Q13568-2, residues 1-514, K96S/S451D/S453D/S456D/S462D)
# Technique: protein-binding microarray
# Form: double-stranded DNA, one strand shown
# Sample: in vitro
# Tested at: 250 nM
# Notes: 60-bp whole probe
# Added: salmon DNA 0.4 mg/ml
# Baseline: random background probes
# Direction: higher = stronger binding
# All sequences stand within: GCCTAGCAC … GTCTTGATTCGCTTGACGCTGCTG
Strand,log fluorescence [z-score]
TTAGGTCTCGATTTCGGTTAGTGCTAG,5.43
TCATTCTTCCCTGTGAAACTGTGCTAG,0.623
GACGGTATTGGTATCGGGACGTGCTAG,1.78
TTAGATATCGCGTATCGATTAGTGCTA,3.29
GCTAGTGTGCCATATTTATCTGTGCTA,-0.0773
CAAGTTTCTCCTTTCCAAATGTGCTAG,3.1
GACGAACTGGGTATCGAGACGTGCTAG,0.642
TCTCCTCCAGGTTCTCTGACAGTGCTA,-0.0561
TTAGATCTCACTATCGATTAGTGCTAG,7.77
TCATGCTTCTGTATGGGACTGTGCTAG,-0.0647

# Sample 2
# Target: RING finger protein unkempt homolog, zinc fingers 1-6, GST-SBP tag (UNK, Homo sapiens, UniProt Q9C0B0, residues 30-357)
# Technique: RNA Bind-n-Seq
# Form: RNA
# Sample: in vitro
# Tested at: not given
# Notes: RNA with constant flanks, ends assumed
# Baseline: input RNA pool
# Direction: higher = stronger binding
# Construct (chain): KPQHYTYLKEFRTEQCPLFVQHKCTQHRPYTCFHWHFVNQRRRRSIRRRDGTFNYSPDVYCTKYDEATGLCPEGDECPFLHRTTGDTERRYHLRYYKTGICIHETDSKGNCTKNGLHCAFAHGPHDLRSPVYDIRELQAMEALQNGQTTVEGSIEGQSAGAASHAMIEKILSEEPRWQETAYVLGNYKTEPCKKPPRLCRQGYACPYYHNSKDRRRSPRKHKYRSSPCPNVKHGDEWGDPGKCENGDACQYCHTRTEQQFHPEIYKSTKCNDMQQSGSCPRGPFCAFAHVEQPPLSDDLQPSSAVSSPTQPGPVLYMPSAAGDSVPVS
Strand,bound/input enrichment
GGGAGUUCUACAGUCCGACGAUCAGAGCAAUGGCUGCAGCAGCAGCUUCUCACCUGAACCUGGAUGCCCUCCGGGAAGUGCCCGAAUGCCCCAUCUGCAUGGAGUCCUUCACAGAAGAGCAGCUGCGUCCCAAGCUUCUGCACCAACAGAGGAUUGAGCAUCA,0.0693 ratio
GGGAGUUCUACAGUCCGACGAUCGCAAGAAUUGAUGCUGUGAAUGCUGAGACAAUUCGAGAAGUAUGUACCAAAUACAUUUAUAACCGGAGUCCAGCUAUUGCUGCUGUUGGUCCCAUUAAGCAACUACCAGAUUUUAAACAGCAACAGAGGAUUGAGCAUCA,0.238 ratio
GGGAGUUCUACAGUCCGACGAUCAAGAGUGCAGAUGACUUUAUAGAUAAGCACAUUGCUGAGCUAAUAUUUUACAUGGAAGAGCUCCGAGCACAUGUCAGGAAGUAUGGGCCUGUCAUGCAGAGGUACUACGUGCAAUACCUCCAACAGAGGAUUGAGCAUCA,0.233 ratio
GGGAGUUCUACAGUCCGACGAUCGCUGCCUCUAUCUUGUUUUUUGUUUUUUCUUCUGGGGGGGGUCUAGAACAGUGCCUGGCACACCGCCGGCGCUCAAUAAAUACUUGUUUGUUGAAUGUCUCCUCUCUCUUUCCACUCUGGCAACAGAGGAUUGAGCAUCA,0.784 ratio
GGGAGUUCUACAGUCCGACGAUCCCACUUCCAGGACCUAACCCCAUCUUGCCAGGGCGAGGCGGCCCCAAUGACAGAUUUCCCUUCCGACCCAGCAGGGGUCGGCCAACUGAUGGCCGGCUGUCAUUCAUGUGAUUGAUUUGUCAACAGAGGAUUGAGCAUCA,0.378 ratio
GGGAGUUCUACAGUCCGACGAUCGAAGGUUCCAAGACCUGGGAUCGAUUCCAGAUGAGGAUCCACAAGCGACUCAUUGAUUUACACCGUCCUUCUGAGAUUGUUAAGCAGAUUACUUCCAUCAGUAUUGAGCCGGGAGUUGAGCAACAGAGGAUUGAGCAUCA,0.169 ratio

# Sample 3
# Target: Histone acetyltransferase KAT6A, winged helix 1, GST fusion (KAT6A, Homo sapiens, UniProt Q92794, residues 1-85)
# Technique: protein binding microarray
# Form: double-stranded DNA, one strand shown
# Sample: in vitro
# Tested at: not given
# Notes: 8-mer, flanks averaged, mean of 2 arrays, mostly near background
# Baseline: not given
# Direction: higher = stronger binding
# Construct (chain): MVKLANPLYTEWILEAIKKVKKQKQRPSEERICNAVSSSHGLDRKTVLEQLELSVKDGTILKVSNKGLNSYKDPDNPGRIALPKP
Strand,E-score
AAGGTGGT,-0.163
CATTCCAG,-0.23
CCGTGCTC,0.105
ACCTGTCC,-0.0794
ATGCATGC,-0.117
GCAAGTAC,-0.0972
CGGAGCCC,0.0186
CAGCCCAG,-0.217
ATCTTTGA,-0.132
AAACAGGT,-0.0455

# Further values, each from its own experiment
Molecule,target,assay,system,conditions,how to read,quantity,result
"PhoQ, residues 284 288 289 292 302 303 SMYGEC","PhoP, residues 12 14 15 18 19 LHHYF (Escherichia coli, UniProt P23836)","Sort-seq, refers to: YFP reporter",E. coli,"PhoQ-PhoP variant library, added: 10 µM Mg2+","baseline: high Mg2+ state, higher = stronger signaling",fold induction,12.7
